Experimental data gathered from unrelated publications.
Protocols differ between the studies behind these lines. ± gives the spread as reported.

SMILES	test	system	setting	Cmax
O=C(CCCCCCC(=O)Nc1ccccc1)NO	–	human, serum	oral, 100 mg three times daily, 14 days, with: idarubicin	554 nM
O=C(CCCCCCC(=O)Nc1ccccc1)NO	–	human, serum	oral, 1700 mg once daily	6150 nM
COc1cc(Nc2ncc3c(n2)-c2ccc(Cl)cc2C(c2c(F)cccc2OC)=NC3)ccc1C(=O)O	–	human, plasma	oral, 50 mg twice daily, day 7, steady state geometric mean	2910 nM
CC#CC(=O)N1CC[C@@H](n2c(=O)n(-c3ccc(Oc4ccccc4)cc3)c3c(N)ncnc32)C1	–	human, fasting, plasma	oral, 160 mg once daily, cycle 1 day 28	484 ng/mL
O=C(/C=C/c1cccc(S(=O)(=O)Nc2ccccc2)c1)NO	–	human moderate liver dysfunction, plasma	intravenous, 400 mg/m^2, 30 min infusion, cycle 1 day -7	22100 ng/mL
C=C(C)[C@@H]1CC[C@]2(NCCN3CCS(=O)(=O)CC3)CC[C@]3(C)[C@H](CC[C@@H]4[C@@]5(C)CC=C(C6=CC[C@@](CF)(C(=O)O)CC6)C(C)(C)[C@@H]5CC[C@]43C)[C@@H]12	–	healthy human volunteers, plasma	oral, 200 mg, tablet, moderate-fat state, geometric mean	1430 ng/mL
Cc1[nH]c2ccccc2c1CCNCc1ccc(/C=C/C(=O)NO)cc1	–	human	20 mg, day 8, with: IM 400 mg	16.6 ng/mL
Cc1ccc(NC(=O)c2ccc(CN3CCN(C)CC3)cc2)cc1Nc1nccc(-c2cncc(-c3oncc3C)c2)n1	–	older healthy human adults, plasma	oral, 125 mg single dose, fed, mean	5290 ng/mL
C=C(C)[C@@H]1CC[C@]2(NCCN3CCS(=O)(=O)CC3)CC[C@]3(C)[C@H](CC[C@@H]4[C@@]5(C)CC=C(C6=CC[C@@](CF)(C(=O)O)CC6)C(C)(C)[C@@H]5CC[C@]43C)[C@@H]12	–	human, plasma	oral, 100 mg once daily for 7 days, day 7, moderate-fat meal	830 ng/mL
C[C@@H]1COC(Nc2ccc3ncnc(Nc4ccc(OCc5nccs5)c(Cl)c4)c3c2)=N1	–	human patients, plasma	oral, 400 mg intermittent, cycle 1	4670 ± 3010 ng/mL
O=C(O)CCCCCCCNC(=O)c1ccccc1O	–	human mild renal impairment, plasma	oral, dose not given, after tenth daily dose, geometric mean	1090 nM
CCc1cc2c(cc1N1CCC(N3CCOCC3)CC1)C(C)(C)c1[nH]c3cc(C#N)ccc3c1C2=O	LC-MS, noncompartmental	human patients under sample A years, plasma	oral, 300 mg/day, cycle 1 day 1, geometric mean	197 ng/mL
Nc1ccc(-c2nc([C@H]3CCc4cc(-c5cc(Cl)ccc5-n5cnnn5)cc(=O)n43)c(F)[nH]2)c(F)n1	–	human, plasma	oral, 250 mg once daily, fed, day 14	3700 ng/mL
CCCCCCCCCCCCCCC[C@H](O)[C@@H](N)CO	–	human, phase I, plasma	intravenous, 360 mg/m^2, day 1, monotherapy	16100 nM
O=C(Nc1c(Cl)cncc1Cl)c1ccc(OC(F)F)c(OCC2CC2)c1	–	human adults, ≥18 years, plasma	topical, 0.3% cream once daily, day 15	3.72 ng/mL
COc1ccc2nc([S@@+]([O-])Cc3ncc(C)c(OC)c3C)[nH]c2c1	–	human, CYP2C19 ultrarapid metabolizers, plasma	oral, 40 mg/day, day 5	4090 ± 7090 ng/mL
Cc1nc(-c2ccc(OCC(C)C)c(C#N)c2)sc1C(=O)O	–	human male, plasma	oral, 40 mg once daily, day 7 or 21, arithmetic mean	798 ng/mL
